Measurements gathered from unrelated publications.
Each line is one published result; not all experiments were run side by side. “And” joins repeats or separate records; there may be more than shown. ± gives the spread as reported.

For `N#CCNC(=O)c1ccc(C2CCCCC2)cc1`, the hepatic clearance was 41 mL/min/kg (liver microsome stability; cynomolgus liver microsomes; 1 µM).
For `C[n+]1cccc2cc(/C=N/NC(=O)c3cccc(C(=O)N/N=C/c4ccc5c(ccc[n+]5C)c4)n3)ccc21`, the ΔTm was 12.8 ± 0.6 °C (22CTA telomeric G4-DNA antiparallel; FRET melting; 1 µM, K10 buffer, DNA 0.2 µM, added: ds26 10 µM).
For `CC(C)Oc1cc(Cl)ccc1CNc1cc(-c2ccccc2)nc2ncnn12`, the cAMP luminescence was 32400 a.u. and 22500 a.u. and 23200 a.u. (endogenous β-adrenergic receptors; cAMP level, cAMP GloSensor; mock-transfected cells; 1 µM, added: isoprenaline 30 nM; higher = more cAMP).
`CN1CCC(c2ccc(-c3ccc([C@H]4[C@@H](F)[C@@H](F)C[C@@H](F)[C@H]4F)cc3)cn2)CC1` has a hepatic clearance of 78 mL/min/kg (liver microsome stability; mouse liver microsomes; 1 µM).
Under “log2 fold change”, `c1ccc(-c2n[nH]cc2-c2ccnc3ccccc23)nc1` is recorded as -0.31 (CKA1 (Candida albicans); kinase binding, MIB/MS competition; Candida albicans lysate; 10 µM; reference: DMSO).
`C[n+]1ccc(/C=N/NC(=O)C(=O)N/N=C/c2cc[n+](C)cc2)cc1` has a ΔTm of 2.6 ± 2.5 °C (22CTA telomeric G4-DNA antiparallel; FRET melting; 1 µM, K10 buffer, DNA 0.2 µM).
The relative co-enrichment of `C=CC(=O)N1[C@@H](c2ccc3c(c2)OCO3)c2[nH]c3ccccc3c2C[C@H]1C(=O)N1CCN(C)CC1` is reported as 200% (human cyclin E1 N112C-3xFLAG:CDK2; co-IP with TMT proteomics, item: HNRNPA1; concentration not given, P09651; reference: wild type DMSO).
With `O=C(N/N=C/c1cc[n+](CC2CC2)c2ccccc12)c1cncc(C(=O)N/N=C/c2cc[n+](CC3CC3)c3ccccc23)n1` the ΔTm was 16.4 ± 0.4 °C (22CTA telomeric G4-DNA antiparallel; FRET melting; 1 µM, K10 buffer, DNA 0.2 µM).
`O=c1c(Oc2ccccc2)c(C(F)(F)F)oc2c(O)c(O)ccc12` gave a Cdc34b-ubiquitin remaining of 9.8% (ROC1-CUL1 E3 subcomplex; Cdc34-ubiquitin discharge; 30 µM; reference: input).
With `Nc1ncc(-c2cc(-c3cnn(CC(F)(F)F)c3)ncc2F)nc1C(=O)NC1CNCC(F)C1` (centres unmarked) the remaining binding was 90% (CASK; KINOMEscan; 1 µM; reference: DMSO control).
`C=CC(=O)Nc1cccc(Cn2ncc3cnc(Nc4cnn(CCOC)c4)nc32)c1` — result for “percent of control”: 97% (CAMK1G human; binding, KINOMEscan; 100 nM; lower = stronger binding).

Some of these lines once more:
With `O=C(N/N=C/c1cc[n+](CC2CC2)c2ccccc12)c1cncc(C(=O)N/N=C/c2cc[n+](CC3CC3)c3ccccc23)n1` the ΔTm was 16.4 ± 0.4 °C (22CTA telomeric G4-DNA antiparallel; FRET melting; 1 µM, K10 buffer, DNA 0.2 µM).
`O=c1c(Oc2ccccc2)c(C(F)(F)F)oc2c(O)c(O)ccc12` gave a Cdc34b-ubiquitin remaining of 9.8% (ROC1-CUL1 E3 subcomplex; Cdc34-ubiquitin discharge; 30 µM; reference: input).
